Measured values gathered from unrelated publications.
Parts stem from different laboratories: compare values within a part only.

Set 1
Target: RING finger protein unkempt homolog, zinc fingers 1-6, GST-SBP tag (UNK, Homo sapiens, UniProt Q9C0B0, residues 30-357)
Technique: RNA Bind-n-Seq
Molecule type: RNA
Medium: in vitro
Tested at: not given
Setting: RNA with constant flanks, human and mouse sites, ends assumed
Reference: input RNA pool
Reading: higher = stronger binding
Constant ends, left off below: GGGAGUUCUACAGUCCGACGAUC … CAACAGAGGAUUGAGCAUCA
Construct (chain): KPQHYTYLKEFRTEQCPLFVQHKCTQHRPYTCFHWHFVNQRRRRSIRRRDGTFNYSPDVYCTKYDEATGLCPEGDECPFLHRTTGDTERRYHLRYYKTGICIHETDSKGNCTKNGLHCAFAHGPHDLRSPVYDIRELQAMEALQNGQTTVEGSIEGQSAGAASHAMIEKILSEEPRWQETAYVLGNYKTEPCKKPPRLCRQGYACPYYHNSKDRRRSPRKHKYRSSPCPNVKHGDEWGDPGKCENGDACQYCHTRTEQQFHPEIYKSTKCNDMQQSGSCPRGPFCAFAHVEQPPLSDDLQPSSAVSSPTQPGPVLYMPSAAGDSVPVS
`CCACAGCAGCAGCCAGGAGAAGCCUAUUCAGCUAUGCCUCGGGCUCAGCCAUCCUCUGCUUCUUAUCAGCCAGUGCCAGCAGACCCUUUUGCCAUUGUUUCCAGAGCCCAGCAGAUGGUU` gave a bound/input enrichment of 0.132 ratio.
The bound/input enrichment of `UUUAGAGGAAAUGCUGUUACUUGGAAUUAAUUUUCCAGUUAUACAGUCUUCUAUAACUUACUAAUAAUAUUCUAUAUGUACUUUAUGUAAUUUCCCUAAAAAGAAUGAACUACCACUACA` is reported as 0.32 ratio.
The bound/input enrichment of `AUCUCGUGCCUCUCCCCACGGGGGGUGGGGGACGCUGAAUGACCCUCAGCUGUUCCAAUCCAGUGGGUUUUUUUGAUUUGUUUGUUUUUGUUUUUUUUUUUUUAUUAAAGAAAUUACUGU` is reported as 0.347 ratio.
For `UCUAGAAUGUCUUCAACUAAAUCAAGUGGAAGUGAAUCUGAUAGAUCAGAAAGACCUGUAUUAGUACGCCAGUCAACUUUCAUCAAAGAAGCUCCAAGCCCAACCUUAAGAAGAAAAUUG`, the bound/input enrichment was 0.185 ratio.
`GAUGGCCUGCAUUUAUCACCAAUGGGAAAUGAGUUUCUGUUCUUAAACCUCUGUCCACUGCUGGACAAGAAGGUCUCAUCUCUGCCGUGGCUGCUUCCUUACUGGAAGGAUGUGGAGGAA` has a bound/input enrichment of 0.164 ratio.
The bound/input enrichment of `UACUUUCAAAGAGCCCCAAGGGCUUAAUGACCCCAUUUGUAACUGAGAAAUGAUUCUUGUUUUAGUAAUCAUUCUAUAAAUGAUACUGCUGGAUUGAUUGCCGUGGGUUGAUAGCUGGAG` is reported as 0.409 ratio.
For `CCUGAAGUGCGACACCACUGUCCCAAUACUCCUAUCAUCCUCGUGGGGACGAAGCUUGAUCUUAGGGAUGAUAAGGACACCAUUGAGAAGCUGAAGGAGAAGAAGCUGACUCCCAUCACC`, the bound/input enrichment was 0.11 ratio.
The bound/input enrichment of `UUUGAGCUGAUGACCAACCUUCACACCAAGCUGGAAGGCUUCCACACGCAGAUCUCCAAGUACUUCUCCGAGAGGGGUGACGCCGUGGCCAAAGCAGCCAAGCAGCCCCACGUGGGUGAC` is reported as 0.081 ratio.
`AUAGCAAGGAAGAUCAUUAAGGACGGUGAGCAGCAUGAAGAUCUCAAUGAAGUAGCCAAACUAUUCAACAUUCAUGAAGACUGAAGCCCCACAGUGGAAUUGGCAAACCCACUGCAGCCC` has a bound/input enrichment of 0.413 ratio.
With `GUUAGCCAAUCAUUGCAGCAUUACUUAGAGCUCGGAAGGCAAGAGCUUUUUAAGAUUCUGCAUAGUAUUUUGUUAAAUGGCGAAACCCGUGAGGCUGCUCUCAGUUACAUGGCGGCUGUC` the bound/input enrichment was 1.14 ratio.
`CCAACGCUCUGCUCCCUGGCAACCCCGAACACUUGGGAUGUCUCGCUGCUGUUUGCCUUCAUUAGUUUGCUCAUCAUGUUUCCCACGUGCUGGAUUGUGUCCUCCUGGCUGGUGUGGGGA` gave a bound/input enrichment of 1.03 ratio.

Set 2
Target: Centromere-binding protein 1, full length, His-tagged (CBF1, Saccharomyces cerevisiae, UniProt P17106, residues 1-351)
UniProt P17106, sequence (whole entry, looked up): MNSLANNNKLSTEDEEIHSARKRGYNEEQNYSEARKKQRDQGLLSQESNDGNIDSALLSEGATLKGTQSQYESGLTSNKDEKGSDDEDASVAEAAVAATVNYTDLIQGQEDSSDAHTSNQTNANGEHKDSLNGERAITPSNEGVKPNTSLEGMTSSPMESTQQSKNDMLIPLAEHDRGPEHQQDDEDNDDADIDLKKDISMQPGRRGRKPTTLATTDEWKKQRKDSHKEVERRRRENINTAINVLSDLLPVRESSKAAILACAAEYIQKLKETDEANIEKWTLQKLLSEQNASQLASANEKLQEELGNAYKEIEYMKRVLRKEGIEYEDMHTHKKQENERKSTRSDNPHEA
Technique: competition protein-binding microarray
Molecule type: double-stranded DNA, one strand shown
Medium: in vitro
Tested at: 2 µM
Setting: whole 60-bp probe, lowest competitor level
With: Pho4 competitor, 0.05 µM
Reading: higher = stronger binding
Constant ends, left off below: … GTCTTGATTCGCTTGACGCTGCTG
For `TCGGGCGCTCTAGGACGCGTGTCGGTCGGGTAACCA`, the fluorescence intensity was 61.1 a.u.
`GATACACTTCCAGGGAACGTGATGGAAATGATCTTC` has a fluorescence intensity of 265 a.u.
`ACTCTGTTTGCGAGTCACGTGAAATATTTCCTGTGG` gave a fluorescence intensity of 7760 a.u.
`CTGTAAGATAAGGGACATGTGGCCTGGGAACTCCTG` has a fluorescence intensity of 105 a.u.
With `TCCCTGTGGATCCATCACGTGTGGATTAGGAGCAAA` the fluorescence intensity was 2310 a.u.
With `TGCGCAACAACTTGGGAAGTGGGTGTATGTCTAGAA` the fluorescence intensity was 57 a.u.
The fluorescence intensity of `TAAGTTCCTTCCCAACACGTGGATTAGAATAGGTAG` is reported as 1100 a.u.
`CATACCCAACCTTGAGGTGTGGGTGAAGATATTTGT` gave a fluorescence intensity of 72 a.u.
`CAGCTGGTCTCCCAGCACGTGGCCTGGAGCCCAGCC` has a fluorescence intensity of 1220 a.u.
`CGGGGTTAAGTTTGGGTAGTGGGTGGCTTGCAGCAG` has a fluorescence intensity of 58.1 a.u.
`AAGTGTATGGGTCCACGCGTGTTTTGTGCAGTGTAT` gave a fluorescence intensity of 81.5 a.u.
For `AAAGCGGTAATTTGGCTTGTGGGTGCAGATATCTAT`, the fluorescence intensity was 67.7 a.u.

Set 3
Organism: Saccharomyces cerevisiae
Observed: growth after mating arrest
Technique: competitive growth deep sequencing
Molecule type: peptide
Setting: strain without Cln2 fusion
Reading: direction not given
The enrichment score of `QDYERRLLRQIVIQNE` is reported as 0.595.
With `EPKTLFLGAGDFQF` the enrichment score was 0.702.
With `CFRCLLFSFSGRSGVE` the enrichment score was 0.077.
The enrichment score of `RVSGLLSWTLSRVLWL` is reported as -0.682.
With `TSSAQRRLEIPSGGAD` the enrichment score was 0.257.
For `LKGRRLVFDN`, the enrichment score was 0.287.
`SDSTVTKLDFDLEP` has an enrichment score of 0.235.
`RSLKLDGLLEEN` has an enrichment score of 0.103.
With `ALLRRLQDVANDRGSH` the enrichment score was 0.233.
For `LAKRALKYTD`, the enrichment score was -0.0329.
`VLLKRLQDVVSERANH` has an enrichment score of -0.209.
`IQKKLRFEDTLEFVGF` gave an enrichment score of -0.276.

Set 4
Target: Eukaryotic initiation factor 4A-I (EIF4A1, Homo sapiens, UniProt P60842, residues 1-406, full length assumed)
UniProt P60842, sequence (whole entry, looked up): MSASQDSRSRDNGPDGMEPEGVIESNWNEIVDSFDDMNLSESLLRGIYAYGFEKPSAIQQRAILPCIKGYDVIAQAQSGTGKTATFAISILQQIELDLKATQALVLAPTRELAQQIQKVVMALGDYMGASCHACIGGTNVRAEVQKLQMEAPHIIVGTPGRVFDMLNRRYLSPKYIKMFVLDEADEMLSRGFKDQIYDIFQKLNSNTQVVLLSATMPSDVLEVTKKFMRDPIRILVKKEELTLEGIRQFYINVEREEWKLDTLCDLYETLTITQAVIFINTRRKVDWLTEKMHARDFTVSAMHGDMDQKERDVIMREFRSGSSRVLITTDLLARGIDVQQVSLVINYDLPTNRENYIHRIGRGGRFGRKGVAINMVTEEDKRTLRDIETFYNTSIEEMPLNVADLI
Technique: RNA Bind-n-Seq
Molecule type: RNA
Medium: in vitro
Tested at: 90 pmol
Setting: 4-mer, random 30-nt RNA, single round
With: 3 µM iPr-DMDA-PatA, 2 mM ADP, 2 mM phosphate
Reference: input library
Reading: higher = stronger binding
`CUGU` has a 4-mer enrichment of 0.867 fold.
The 4-mer enrichment of `ACAC` is reported as 1.15 fold.
`UGCC` has a 4-mer enrichment of 0.768 fold.
For `CGAA`, the 4-mer enrichment was 1.29 fold.
For `GAAG`, the 4-mer enrichment was 1.11 fold.
For `GCAU`, the 4-mer enrichment was 0.871 fold.
`GGUU` gave a 4-mer enrichment of 0.85 fold.
With `UCGU` the 4-mer enrichment was 0.929 fold.
`UCUU` gave a 4-mer enrichment of 1.01 fold.
The 4-mer enrichment of `GACG` is reported as 0.979 fold.
`ACUA` gave a 4-mer enrichment of 1.25 fold.
`CCAG` gave a 4-mer enrichment of 0.942 fold.
For `GCCC`, the 4-mer enrichment was 0.759 fold.
With `UGCU` the 4-mer enrichment was 0.825 fold.
`ACGG` has a 4-mer enrichment of 0.879 fold.
For `CGAG`, the 4-mer enrichment was 1.02 fold.

Set 5
Target: UBE2J2 UBC core domain (UniProt Q8N2K1)
Technique: yeast two-hybrid
Medium: yeast
Setting: mostly zero background
Reference: not given
Reading: higher = stronger interaction
B1: RC3H1 RING domain (UniProt Q5TC82); chain QAPQWTDFLSCPICTQTFDETIRKPISLGCGHTVCKMCLNKLHRKACPFDQTTINTDIELL
B2: TRAF5 RING domain (UniProt O00463); chain FVERLEERYKCAFCHSVLHNPHQTGCGHRFCQHCILSLRELNTVPICPVDKEVIKSQEVFK
B3: DTX4 RING domain (UniProt Q9Y2E6); chain QKVRHPPDEDCTICMERLTAPSGYKGPQPTVKPDLVGKLSRCGHVYHIYCLVAMYNNGNKDGSLQCPTCKTIYGVKTGTQ
B4: RNF111 RING domain (UniProt Q6ZNA4); chain EGTEEDTEEKCTICLSILEEGEDVRRLPCMHLFHQVCVDQWLITNKKCPICRVDIEAQLPSE
B5: TRIM5 RING domain (UniProt Q9C035); chain ILVNVKEEVTCPICLELLTQPLSLDCGHSFCQACLTANHKKSMLDKGESSCPVCRISYQPENIRP
B6: SH3RF2 RING domain (UniProt Q8TEC5); chain DDLTLLDLLECPVCFEKLDVTAKVLPCQHTFCKPCLQRVFKAHKELRCPECRTPVFSNIEAL
B7: VPS41 RING domain (UniProt P49754); chain KGVLVDEENICESCLSPILPSDAAKPFSVVVFHCRHMFHKECLPMPSMNSAAQFCNICSAKNRGPGSAI
B8: MKRN1 RING domain (UniProt Q9UHC7); chain FAVQRSKDMVCGICMEVVYEKANPSERRFGILSNCNHTYCLKCIRKWRSAKQFESKIIKSCPECRITSNFVIPSE
B9: TRIML1 RING domain (UniProt Q8N9V2); chain LMENLREELTCFICLDYFSSPVTTECGHSFCLVCLLRSWEEHNTPLSCPECWRTLEGPHFQS
Residues (chain): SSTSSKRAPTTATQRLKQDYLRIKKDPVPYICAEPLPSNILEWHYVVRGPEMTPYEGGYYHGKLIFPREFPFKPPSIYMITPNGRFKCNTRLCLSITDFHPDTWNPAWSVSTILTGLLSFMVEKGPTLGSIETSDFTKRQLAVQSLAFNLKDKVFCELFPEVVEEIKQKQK
For `B1 (RC3H1 RING domain)`, “lacZ reporter activity” read 0.
For `B2 (TRAF5 RING domain)`, “lacZ reporter activity” read 0.
`B3 (DTX4 RING domain)` — result for “lacZ reporter activity”: 0.
`FQGDVDEDLICPICSGVLEEPVQAPHCEHAFCNACITQWFSQQQTCPVDRSVVTVAHLRP (RNF41 RING domain (UniProt Q9H4P4))` — result for “lacZ reporter activity”: 1070.
For `B4 (RNF111 RING domain)`, “lacZ reporter activity” read 0.
`B5 (TRIM5 RING domain)`: “lacZ reporter activity” 0.
`B6 (SH3RF2 RING domain)`: “lacZ reporter activity” 0.
`MPIRALCTICSDFFDHSRDVAAIHCGHTFHLQCLIQWFETAPSRTCPQCRIQVGKRTIIN (TRAIP RING domain (UniProt Q9BWF2))`: “lacZ reporter activity” 2720.
`B7 (VPS41 RING domain)` — result for “lacZ reporter activity”: 0.
For `B8 (MKRN1 RING domain)`, “lacZ reporter activity” read 0.
`B9 (TRIML1 RING domain)`: “lacZ reporter activity” 0.
Under “lacZ reporter activity”, `QVDKAVFHMQSVKCLKCQEQKRAVLPCQHAALCELCAEGSECPICQPGRAHTLQS (UNK RING domain (UniProt Q9C0B0))` is recorded as 0.

Set 6
Target: Sal-like protein 4, full length isoform B (SALL4, Homo sapiens, UniProt Q9UJQ4-2, residues 1-616)
Technique: universal PBM
Molecule type: double-stranded DNA, one strand shown
Medium: in vitro
Tested at: not given
Setting: 8-mer, flanks averaged, mean of replicates
Reading: higher = stronger binding
`CGGATGTC` has an E-score of -0.193.
With `GCCATTTA` the E-score was 0.0725.
`CCGAGGTA` gave an E-score of -0.247.
The E-score of `ACAACCCC` is reported as -0.0903.
With `CAAGTTAA` the E-score was 0.139.
`CAGACCAG` has an E-score of -0.182.
With `CATTACCG` the E-score was 0.0147.
`CGGGTCAG` gave an E-score of -0.237.
For `AGCCAAAC`, the E-score was -0.0566.
`CGGGTTAA` has an E-score of -0.0799.
`ACCGTCAA` has an E-score of -0.0309.
`GTTACACA` has an E-score of 0.017.
`AATAAGAT` has an E-score of 0.255.
The E-score of `ATCTGGCC` is reported as -0.191.
The E-score of `ATGTGTCC` is reported as -0.053.
`CGCATCGC` gave an E-score of -0.132.
For `AAACGGGC`, the E-score was -0.157.
`CCGACTGA` has an E-score of -0.172.
The E-score of `CGGGGTAG` is reported as -0.267.
`TCGTGAGA` has an E-score of -0.0666.
For `ATACAACA`, the E-score was 0.276.
`AGAGTTTC` has an E-score of -0.0798.
`GCAATGAC` gave an E-score of -0.042.
`CGTGGATA` has an E-score of 0.125.
`AGGACCAC` gave an E-score of -0.234.
